Published values gathered from unrelated publications.
A part holds a random share of what one study measured. Positions count from the first letter of the parent shown.

Block 1
Target: RING finger protein unkempt homolog, zinc fingers 1-6, GST-SBP tag (UNK, Homo sapiens, UniProt Q9C0B0, residues 30-357)
Technique: RNA Bind-n-Seq
Form: RNA
Matrix: in vitro
Tested at: not given
Notes: RNA with constant flanks, human and mouse sites, ends assumed
Reference: input RNA pool
Direction: higher = stronger binding
Construct (chain): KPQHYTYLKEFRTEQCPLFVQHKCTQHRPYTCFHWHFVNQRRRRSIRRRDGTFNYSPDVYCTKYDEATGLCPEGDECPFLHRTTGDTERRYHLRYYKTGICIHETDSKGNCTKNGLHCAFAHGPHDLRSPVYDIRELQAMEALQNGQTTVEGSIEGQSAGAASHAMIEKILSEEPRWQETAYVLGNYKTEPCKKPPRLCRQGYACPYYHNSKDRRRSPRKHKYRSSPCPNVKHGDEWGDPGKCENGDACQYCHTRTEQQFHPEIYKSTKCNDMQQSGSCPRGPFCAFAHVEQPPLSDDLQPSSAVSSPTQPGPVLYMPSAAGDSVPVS
For `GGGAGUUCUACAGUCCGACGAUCGGGCGGACCCGGUGGGCCGACCUGAAGAGUACUCUGGUCUUUAUCACUUUCACUUACGGUUUUUCACCUGUGCUAAAGACCCUGACGGAGUCUGUCAGUACAGACACUAUCUACGCCAUGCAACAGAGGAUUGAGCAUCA`, the bound/input enrichment was 0.112 ratio.
With `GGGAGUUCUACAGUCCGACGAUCUUCCGCCACAUGAGAAACCAUGCUUAUGAGCCGCUCGCCAGCUUCCUGGACUUCAUAACUUAUAGCUACAUGAUUGACAACGUGAUCCUGCUAAUCACAGGCACACUGCACCAGCGUUCACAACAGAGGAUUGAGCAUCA` the bound/input enrichment was 0.226 ratio.
With `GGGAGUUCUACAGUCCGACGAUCUCUCAGACACACACUCCAGAACAGAUGGUAUCCAGAUGCCUUAUGGGGACAUCCUUCUCCACACAGGCGAUUUCACCGAGCUGGGACUGCCCUCAGAGGUUAAGAAGUUUAAUGACUGGUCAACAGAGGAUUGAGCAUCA` the bound/input enrichment was 0.248 ratio.
`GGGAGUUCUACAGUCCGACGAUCAAAGGAAGUCUAAACAAAGCAAUAGAAGAUUUUGAGCUCGCAUUAGAAAACUGCCCAACUCAUAGGAAUGCAAGGAAAUAUCUCUGCCAGACACUUGUAGAAAGGGGAGGGCAGUUAGAACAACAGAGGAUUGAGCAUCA` gave a bound/input enrichment of 5.19 ratio.
`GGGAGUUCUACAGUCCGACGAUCAGUUGUGUGGCCCACAAUGCCCUGGAGUGUGCACGAGCCAUAUAUGCCUAUGCCCUACAAGUCUUCCCCAGCAAGAAAAGUGUGUGGUUACGAGCUGCCUACUUUGAGAAGAAUCAUGGUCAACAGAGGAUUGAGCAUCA` has a bound/input enrichment of 0.157 ratio.
With `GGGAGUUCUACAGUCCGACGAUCAGUGAAAAUCUACCAGGCUCCUCUUGUGAGGGGCAGUUCCAGUGUGUCCAUGUAGGGUUCUAGCUACAUCGUUCUAGAAGAUAUGAGUUAAUCUCUAAUAAAAGGAAAAUUAAGACUGGGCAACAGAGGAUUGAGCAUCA` the bound/input enrichment was 0.654 ratio.
`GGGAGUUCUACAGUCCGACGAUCACCCCAGAGCGAAUGGCGGAGGCUGGCUUCAUCCACUGCCCUACCGAGAACGAGCCUGAUUUGGCCCAGUGUUUUUUCUGCUUUAAGGAAUUGGAAGGCUGGGAACCCGAUGACAACCCGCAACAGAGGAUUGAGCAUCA` has a bound/input enrichment of 0.0526 ratio.
For `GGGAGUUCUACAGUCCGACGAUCCAGACACUACAGCUGGAUUUCUUGAUGAAAAUCUUGCCAAAUUACCACCACCUAAAGAAGACUAUGAAAGGAAGCUCAACUCCAGUAAAGAACUAAGAACAGUGUAUAACAUGAAGAUAACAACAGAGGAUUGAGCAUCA`, the bound/input enrichment was 0.502 ratio.

Block 2
Target: Histone acetyltransferase KAT6A, winged helix 1, GST fusion (KAT6A, Homo sapiens, UniProt Q92794, residues 1-85)
Technique: protein binding microarray
Form: double-stranded DNA, one strand shown
Matrix: in vitro
Tested at: not given
Notes: 8-mer, flanks averaged, mean of 2 arrays, mostly near background
Reference: not given
Direction: higher = stronger binding
Residues (chain): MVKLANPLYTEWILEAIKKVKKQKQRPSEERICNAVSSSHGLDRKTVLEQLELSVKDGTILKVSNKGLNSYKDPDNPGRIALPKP
The E-score of `CGTCCGAG` is reported as 0.205.
With `GGCTGGTA` the E-score was 0.00107.
With `CTCATTAA` the E-score was -0.0671.
With `GGTAATAC` the E-score was 0.0824.
`GCATTATA` has an E-score of 0.0603.
`CATATGGA` has an E-score of -0.105.
For `ACCAACCT`, the E-score was -0.105.
`GTTCTGTA` gave an E-score of -0.158.
With `GAGATATC` the E-score was -0.108.
The E-score of `CAGAACCA` is reported as -0.142.
With `CTTTTGAC` the E-score was -0.116.
For `ACCATCGG`, the E-score was 0.0527.
With `AACTCCAA` the E-score was -0.14.
For `ACTAGGGA`, the E-score was 0.027.
The E-score of `CCCACTGC` is reported as -0.103.
The E-score of `CCACTAAC` is reported as -0.181.
`CAGGGCCG` has an E-score of 0.312.
For `AGAAATTA`, the E-score was -0.1.
For `CATCGACG`, the E-score was 0.13.
The E-score of `CGTCTATC` is reported as -0.00121.
`GGGTGATA` has an E-score of 0.133.
`TCCCGTCA` gave an E-score of 0.239.

Block 3
Target: CCNB1, cyclin fold, Cln2 fusion (human)
Technique: yeast growth competition, sequencing
Matrix: yeast
Notes: weak parent motif
Reference: not given
Direction: higher = stronger binding
Parent: RB1 docking peptide (human); PKPLKKLRFDIEG
Under “normalised enrichment score”, `F9G` is recorded as 0.353.
`P3N`: “normalised enrichment score” 0.278.
For `K6E`, “normalised enrichment score” read -0.611.
`K5I` — result for “normalised enrichment score”: 0.782.
Under “normalised enrichment score”, `L4F` is recorded as 1.2.
`P1M`: “normalised enrichment score” 0.0902.
For `R8M`, “normalised enrichment score” read 0.54.
`R8C`: “normalised enrichment score” 0.281.
For `K5T`, “normalised enrichment score” read 0.497.
Under “normalised enrichment score”, `K2S` is recorded as 1.13.
`K6D`: “normalised enrichment score” 0.787.
`P1D` — result for “normalised enrichment score”: 2.39.
For `F9Q`, “normalised enrichment score” read 1.
`E12V`: “normalised enrichment score” -0.277.
Under “normalised enrichment score”, `G13D` is recorded as 0.296.
For `K2N`, “normalised enrichment score” read 0.817.
`P3Q`: “normalised enrichment score” 0.551.

Block 4
Target: Interferon regulatory factor 3, full length, phosphomimetic (IRF3, Homo sapiens, UniProt Q14653, residues 1-427, S386D/S396D/S398D/S402D/T404D/S405D)
Technique: protein-binding microarray
Form: double-stranded DNA, one strand shown
Matrix: in vitro
Tested at: 2540 nM top
Notes: 60-bp whole probe
With: salmon DNA 0.4 mg/ml
Reference: random background probes
Direction: higher = stronger binding
All sequences stand within: GCCTAGCAC … GTCTTGATTCGCTTGACGCTGCTG
Construct (chain): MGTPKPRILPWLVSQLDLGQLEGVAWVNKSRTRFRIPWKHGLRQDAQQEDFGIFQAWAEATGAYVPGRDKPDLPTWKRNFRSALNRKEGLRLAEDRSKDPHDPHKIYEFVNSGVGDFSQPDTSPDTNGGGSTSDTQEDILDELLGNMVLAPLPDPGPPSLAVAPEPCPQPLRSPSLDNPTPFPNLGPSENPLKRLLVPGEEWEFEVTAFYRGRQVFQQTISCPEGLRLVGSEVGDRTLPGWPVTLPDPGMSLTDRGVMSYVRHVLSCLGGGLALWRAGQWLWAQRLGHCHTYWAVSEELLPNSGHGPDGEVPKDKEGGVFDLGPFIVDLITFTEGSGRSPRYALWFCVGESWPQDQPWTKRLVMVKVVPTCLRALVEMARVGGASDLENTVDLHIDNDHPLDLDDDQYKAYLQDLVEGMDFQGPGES
`TAAGGACTGCTACTGCTTTAGTGCTAG` — result for “fitted relative affinity”: -0.761 z-score.
`GACGGAATGCTTCTCCTGACGTGCTAG`: “fitted relative affinity” -0.0572 z-score.
For `GACGGCATCGGTTTCGGGACGTGCTAG`, “fitted relative affinity” read 2.56 z-score.
`TTAGGTTTCGGTTCGGGTTAGTGCTAG`: “fitted relative affinity” 8.5 z-score.
`TCAGCTATGTTGTCCAGGACTGTGCTA`: “fitted relative affinity” -0.539 z-score.
For `TCAGGTTTGTACACCGCACTGTGCTAG`, “fitted relative affinity” read 0.000352 z-score.
`TTCGATTTCAGTTTCGATTAGTGCTAG` — result for “fitted relative affinity”: 5.62 z-score.
`GACGAACTGAGACTTGAGACGTGCTAG`: “fitted relative affinity” -0.295 z-score.
For `TTACGTCTCGGTCTCGGTTAGTGCTAG`, “fitted relative affinity” read 1.44 z-score.
`TTAGATACCGGGTTTCGATTAGTGCTA` — result for “fitted relative affinity”: 1.9 z-score.
`TTAGGTATCGGTACTGGGTTAGTGCTA`: “fitted relative affinity” 3.32 z-score.
`TTAGATCGCAGTCTCGATTAGTGCTAG` — result for “fitted relative affinity”: 0.209 z-score.
Under “fitted relative affinity”, `TTAGGCATCGGTATCGGTTAGTGCTAG` is recorded as 1.7 z-score.
`TCAATTTTAGTTTTCATACTGTGCTAG`: “fitted relative affinity” 3.35 z-score.
For `TCAAATCTCACTCTGTCACTGTGCTAG`, “fitted relative affinity” read 0.396 z-score.
Under “fitted relative affinity”, `GACGAACTGGGAACTGGAGACGTGCTA` is recorded as -0.0863 z-score.
Under “fitted relative affinity”, `TTAGGTCTCGGTTTTGGTTAGTGCTAG` is recorded as 2.4 z-score.
`GAGGCAAGGAGGGAGAACAGGTGCTAG`: “fitted relative affinity” -1.27 z-score.
Under “fitted relative affinity”, `TCATTTTTCATCATTGCACTGTGCTAG` is recorded as 1.51 z-score.
